Results gathered from unrelated publications.
Compare with care: the assays were run in different laboratories. ± gives the spread as reported.

| Structure (SMILES) | tested on | test | system | conditions | scale | quantity | result |
| --- | --- | --- | --- | --- | --- | --- | --- |
| O=C(N[C@H](Cc1c[nH]c2ccccc12)C(=O)Nc1ccncc1)c1ccc(-c2ccc(F)c(Cl)c2)cc1F |  |  | Swiss Webster mouse, female, plasma | oral, 50 mg/kg, 2 h, 20% Kolliphor vehicle |  | concentration | 8.9 µM |
| Cn1cc(-c2ccc(-c3cncc(Cl)c3N3CCC4(CCNC4=O)CC3)cc2)cn1 | COLO 205 | gene expression, microarray, measured: DUSP6 mRNA |  | concentration not given, 6 h | reference: untreated cells | log2 fold change | 1.38 |
| Clc1cccc(Cl)c1N=C1NCCN1 |  |  | rat, lumbar spinal cord | intrathecal, 3 µg, 30 min |  | concentration | 3.21 µM |
| O=C(N[C@H](Cc1c[nH]c2ccccc12)C(=O)Nc1ccncc1)c1ccc(N2CCN(c3ccc(F)cc3F)CC2)cc1F |  |  | Swiss Webster mouse, female, intestine | oral, 50 mg/kg, 2 h, 20% HPβCD vehicle |  | concentration | 72 µM |
| COc1nc(-c2cc(C)c(N[C@@H](C)c3cc(F)cc(F)c3)nn2)ccc1-n1cnc(C)c1 |  |  | rat Sprague-Dawley male, brain | oral, 25 mg/kg daily for 9 days, 4 h after dose |  | concentration | 3950 ng/g |
| O=C(N[C@H](Cc1c[nH]c2ccccc12)C(=O)Nc1ccncc1)c1ccc(-c2ccc(F)c(C(F)(F)F)c2)cc1F |  |  | Swiss Webster mouse, female, heart | oral, 50 mg/kg, 8 h, 20% HPβCD vehicle |  | concentration | 10.4 µM |
| CN(C(=O)n1cnc(-c2cccnc2)c1)[C@H]1CC[C@H](O)CC1 |  |  | Wistar rat, medulla oblongata | oral, 10 mg/kg/day of BIA 10-2474, 48 h, repeated 5 days |  | concentration | 14.4 ± 1.2 ng/g |
| CC(C)(O)c1coc(S(=O)(=O)NC(=O)Nc2c3c(cc4c2CCC4)CCC3)c1 |  |  | male Sprague-Dawley rats, ankle joint | oral, 2 mg/kg, 2 h |  | concentration | 9710 ± 6340 ng/g |
| O=C(/C=C/c1ccc(O)c(O)c1)OCCc1ccccc1 | Toxoplasma gondii | parasite growth | HFF, bradyzoite, alkaline-induced |  |  | EC50 | 22.3 µM |
| Cc1nccc2c1c(=O)n(C)c1cc(OC[C@@H](N)CC(C)C)c(C#N)cc21 |  |  | rat, plasma | intrathecal, 0.3 µg, 30 min |  | concentration | 0.0033 µM |
| OC(CCN1CCCCC1)(c1ccccc1)C1CC2C=CC1C2 (stereo not shown) | Toxoplasma gondii | parasite growth | HFF, bradyzoite, glutamine-induced |  |  | EC90 | 157 µM |
| CN(C(=O)n1cnc(-c2ccc[n+]([O-])c2)c1)[C@H]1CC[C@H](O)CC1 |  |  | Wistar rat, midbrain | oral, 10 mg/kg of BIA 10-2474, 1 h, single dose |  | concentration | 15.3 ± 1.4 ng/g |
| COC(=O)[C@@H]1[C@H]2C[C@H]3c4[nH]c5ccccc5c4CCN3C[C@@H]2CC[C@@H]1O |  |  | rat, thoracic spinal cord | intraperitoneal, 1 mg/kg, 1.5 h |  | concentration | 0.45 µM |

Excerpt of the above:
| Structure (SMILES) | tested on | test | system | conditions | scale | quantity | result |
| --- | --- | --- | --- | --- | --- | --- | --- |
| O=C(/C=C/c1ccc(O)c(O)c1)OCCc1ccccc1 | Toxoplasma gondii | parasite growth | HFF, bradyzoite, alkaline-induced |  |  | EC50 | 22.3 µM |
| Cc1nccc2c1c(=O)n(C)c1cc(OC[C@@H](N)CC(C)C)c(C#N)cc21 |  |  | rat, plasma | intrathecal, 0.3 µg, 30 min |  | concentration | 0.0033 µM |
